Results from different studies.
Protocols differ between the studies behind these lines.
IGF1R: Insulin-like growth factor 1 receptor (IGF1R, Homo sapiens, UniProt P08069)
Sequence of UniProt P08069 (whole entry, looked up): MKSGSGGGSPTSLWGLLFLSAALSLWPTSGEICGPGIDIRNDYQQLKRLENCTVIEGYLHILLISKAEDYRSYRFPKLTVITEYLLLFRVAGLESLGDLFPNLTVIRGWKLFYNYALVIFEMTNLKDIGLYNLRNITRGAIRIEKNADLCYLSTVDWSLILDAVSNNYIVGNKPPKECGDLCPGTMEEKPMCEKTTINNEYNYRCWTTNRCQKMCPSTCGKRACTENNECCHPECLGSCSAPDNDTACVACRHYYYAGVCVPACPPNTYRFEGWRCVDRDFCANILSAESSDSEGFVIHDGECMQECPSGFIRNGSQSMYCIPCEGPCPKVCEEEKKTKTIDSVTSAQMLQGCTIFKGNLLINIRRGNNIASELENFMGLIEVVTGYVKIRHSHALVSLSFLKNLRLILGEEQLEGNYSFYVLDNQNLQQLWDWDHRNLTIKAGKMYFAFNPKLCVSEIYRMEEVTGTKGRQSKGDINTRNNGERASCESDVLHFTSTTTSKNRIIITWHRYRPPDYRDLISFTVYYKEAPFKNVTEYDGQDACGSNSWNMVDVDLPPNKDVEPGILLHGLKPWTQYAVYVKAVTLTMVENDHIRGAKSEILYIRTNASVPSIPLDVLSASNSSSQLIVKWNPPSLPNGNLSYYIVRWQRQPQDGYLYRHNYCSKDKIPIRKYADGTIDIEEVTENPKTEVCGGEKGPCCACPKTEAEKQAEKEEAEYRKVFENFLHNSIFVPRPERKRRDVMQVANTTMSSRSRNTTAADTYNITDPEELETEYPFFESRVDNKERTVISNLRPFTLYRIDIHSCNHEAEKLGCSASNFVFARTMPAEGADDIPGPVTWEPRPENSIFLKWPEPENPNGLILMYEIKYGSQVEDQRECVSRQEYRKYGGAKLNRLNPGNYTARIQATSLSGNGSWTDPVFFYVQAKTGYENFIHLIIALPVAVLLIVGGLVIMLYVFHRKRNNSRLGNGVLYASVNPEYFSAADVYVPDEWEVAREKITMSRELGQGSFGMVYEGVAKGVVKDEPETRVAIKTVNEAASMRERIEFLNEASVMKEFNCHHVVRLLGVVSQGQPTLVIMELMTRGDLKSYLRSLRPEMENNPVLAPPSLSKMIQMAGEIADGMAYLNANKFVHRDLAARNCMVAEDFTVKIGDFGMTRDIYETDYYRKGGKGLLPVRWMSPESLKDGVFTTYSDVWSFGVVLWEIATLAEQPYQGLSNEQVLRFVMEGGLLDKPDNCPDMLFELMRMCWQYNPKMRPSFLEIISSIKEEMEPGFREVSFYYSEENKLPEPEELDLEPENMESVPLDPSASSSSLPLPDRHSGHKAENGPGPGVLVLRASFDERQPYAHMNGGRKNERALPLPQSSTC

Structure (SMILES)	target	test	conditions	scale	measurement	value
COc1cc(N2CCN(C)CC2)ccc1Nc1nc(N)n(C(=S)NCc2c(Cl)cccc2Cl)n1	IGF1R	enzyme activity	10 µM	baseline: control	remaining activity	0%
Cc1cc(Nc2cc(N3CCN(C)CC3)nc(Sc3ccc(NC(=O)C4CC4)cc3)n2)[nH]n1	IGF1R	kinase activity, KinaseProfiler	0.03 µM, species human	baseline: control	remaining activity	73%
COc1cc(-c2cncc3c2CN(C)Cc2cc(N4CCNCC4)ccc2-3)cc(OC)c1OC	Insulin-like growth factor 1 receptor, activated (IGF1R, Homo sapiens, UniProt P08069)	kinase activity	1 µM, together with: ATP 10 µM	baseline: DMSO control	remaining activity	111%
CCOc1cc(N2CCN(C)CC2)ccc1Nc1nc(N)n(C(=O)NCc2ccccc2S(=O)(=O)C(C)C)n1	IGF1R	enzyme activity	10 µM	baseline: control	remaining activity	1.1%
O=C1NC(=O)/C(=C/c2ccc(-c3ccc(F)cc3O)o2)S1	IGF1R	enzyme activity	10 µM	–	remaining activity	75%
C[C@]1(O)C[C@@H](c2nc(-c3ccc4ccc(-c5ccccc5)nc4c3)c3c(N)nccn32)C1	IGF1R	inhibitor, radiometric phosphocellulose	10 µM, together with: ATP 0.2 mM	–	inhibition	~98%
COc1cc(F)ccc1-c1ncnc(Nc2cccc(C[S@](C)(=N)=O)c2)n1	IGF1R	kinase activity	10 µM, together with: 10 µM ATP	–	remaining activity	95%
COc1cc(N2CCN(C)CC2)ccc1Nc1nc(N)n(C(=O)NCc2c(Cl)cccc2Cl)n1	IGF1R	enzyme activity	10 µM	baseline: control	remaining activity	3.8%
c1cnc2ccc(Nc3nc(NC4CC4)c4nc[nH]c4n3)cc2c1	IGF1R	kinase activity, inhibitor, SelectScreen kinase profiling	1 µM	baseline: control	remaining activity	74%

Excerpt of the above:
Structure (SMILES)	target	test	conditions	scale	measurement	value
O=C1NC(=O)/C(=C/c2ccc(-c3ccc(F)cc3O)o2)S1	IGF1R	enzyme activity	10 µM	–	remaining activity	75%
